Published values gathered from unrelated publications.
Target: Tyrosine-protein kinase receptor TYRO3 (TYRO3, Homo sapiens, UniProt Q06418)

SMILES	test	setting	scale	quantity	result
CNC1C[S+]2CC[S+]3CC[S+](C1)[Ru-4]321([N]=C=S)[n]2c3ccc(OC)cc3c3c4c(c5cc(F)c[n+]1c5c32)C(=O)NC4=O (stereo not shown)	KinomeScan	0.1 µM	relative to: untreated	remaining binding	94%
COc1ccc(NC(=O)Nc2ccc3c(c2)C(=O)N(C(C)CO)CC(C)C(CN(C)Cc2ccc4c(c2)OCO4)O3)cc1 (stereo not shown)	kinase activity, KinaseProfiler	0.03 µM, species human	relative to: control	remaining activity	99%
CN1CC[C@@H](COc2cnc(C#N)cc2-c2ccn3nc(NC(=O)C4CC4)cc3c2)C1	enzyme activity, inhibitor	1 µM		inhibition	14%
NC(=O)C[C@H]1CCc2sc3ncnc(O[C@H]4CC[C@H](N5CCOCC5)CC4)c3c21	enzyme activity, inhibitor	10 µM		inhibition	3%
CCn1cc(C(=O)O)c(=O)c2c(N)c(F)c(NC3CCCCC3)cc21	kinase activity	0.1 µM, together with: ATP at Km		inhibition	-6.8%
Nc1ncc(-c2cc(-c3cnn(CC(F)(F)F)c3)ncc2F)nc1C(=O)NC1CNCC(F)C1 (stereo not shown)	enzyme activity	1 µM	relative to: DMSO control	remaining activity	90.2%
Nc1ncc2c(n1)-c1c([nH]c3ccc(C4=CCOCC4)cc13)CCC2	binding, competition with immobilised ligand	1 µM		remaining binding	100%
CNC(=O)C[C@H](Cc1ccc(C#N)cc1)NC(=O)c1cc(-c2ccc(CN[C@H](C)c3ccc(C)cc3)o2)ccc1Cl	enzyme activity, inhibitor	1 µM		activity vs control	96%
C=CC(=O)Nc1cccc(-c2cnc3[nH]cc(C(=O)NC(C)(C)C)c3n2)c1	enzyme activity, inhibitor	0.1 µM		inhibition	8%
COc1c(Cl)cccc1Nc1c(-c2ccncc2C#C[C@@]2(C)CCCN2C(=O)/C=C/CN(C)C)[nH]c2c1C(=O)NCC2	cell-free assay, competition with immobilised ligand	3 µM		remaining binding	100%
Cc1ccc(-c2c(/C=C(\C#N)C(=O)NC(C)C)n(CCCO)c3ncnc(N)c23)cc1	cell-free assay, competition with immobilised ligand	1 µM		remaining binding	82%
Cc1cccc(O[C@H]2CCC[C@@H](C(C)CNCc3ccncc3)C2)c1 (relative stereo)	cell-free assay	1 µM		inhibition	-3%
COc1cc(Nc2nccc(-c3cnn4nc(OC)ccc34)n2)cc(C(F)(F)F)c1	binding, competition with immobilised ligand	1 µM		remaining binding	100%
CCN1CCN(Cc2ccc(C(=O)Nc3ccc(C)c(NCc4cnc5[nH]ccc5c4OC)c3)cc2C(F)(F)F)CC1	binding, competition with immobilised ligand	1 µM		remaining binding	66%
C[C@H]1CN(C(=O)c2cn(-c3ccnc(N)n3)c3cc(C#CC4(O)CCCCC4)ccc23)CCN1	enzyme activity, inhibitor, FRET	1 µM		inhibition	-2%
O=C(O)CCC(=O)c1cccc(NS(=O)(=O)c2c[nH]c3ncccc23)c1	kinase activity, radiometric	10 µM		remaining activity	118%
